Results of several laboratories.
Every numbered part comes from another study and shows a few of its results, in no order. ± marks the error that the study gave. Values after ≈ are worked out from the molar mass of the structure shown.
UniProt P25929, sequence (whole entry, looked up): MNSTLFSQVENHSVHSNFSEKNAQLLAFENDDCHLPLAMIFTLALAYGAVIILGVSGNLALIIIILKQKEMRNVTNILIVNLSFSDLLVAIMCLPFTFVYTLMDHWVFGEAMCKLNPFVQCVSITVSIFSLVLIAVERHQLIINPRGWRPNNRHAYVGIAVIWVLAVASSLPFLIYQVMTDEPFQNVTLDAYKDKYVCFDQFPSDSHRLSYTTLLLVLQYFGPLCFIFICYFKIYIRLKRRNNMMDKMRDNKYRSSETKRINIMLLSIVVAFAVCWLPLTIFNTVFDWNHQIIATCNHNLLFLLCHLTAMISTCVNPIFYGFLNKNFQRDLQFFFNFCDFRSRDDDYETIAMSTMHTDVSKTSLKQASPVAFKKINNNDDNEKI
UniProt Q9UIF8, sequence (whole entry, unmodified, looked up): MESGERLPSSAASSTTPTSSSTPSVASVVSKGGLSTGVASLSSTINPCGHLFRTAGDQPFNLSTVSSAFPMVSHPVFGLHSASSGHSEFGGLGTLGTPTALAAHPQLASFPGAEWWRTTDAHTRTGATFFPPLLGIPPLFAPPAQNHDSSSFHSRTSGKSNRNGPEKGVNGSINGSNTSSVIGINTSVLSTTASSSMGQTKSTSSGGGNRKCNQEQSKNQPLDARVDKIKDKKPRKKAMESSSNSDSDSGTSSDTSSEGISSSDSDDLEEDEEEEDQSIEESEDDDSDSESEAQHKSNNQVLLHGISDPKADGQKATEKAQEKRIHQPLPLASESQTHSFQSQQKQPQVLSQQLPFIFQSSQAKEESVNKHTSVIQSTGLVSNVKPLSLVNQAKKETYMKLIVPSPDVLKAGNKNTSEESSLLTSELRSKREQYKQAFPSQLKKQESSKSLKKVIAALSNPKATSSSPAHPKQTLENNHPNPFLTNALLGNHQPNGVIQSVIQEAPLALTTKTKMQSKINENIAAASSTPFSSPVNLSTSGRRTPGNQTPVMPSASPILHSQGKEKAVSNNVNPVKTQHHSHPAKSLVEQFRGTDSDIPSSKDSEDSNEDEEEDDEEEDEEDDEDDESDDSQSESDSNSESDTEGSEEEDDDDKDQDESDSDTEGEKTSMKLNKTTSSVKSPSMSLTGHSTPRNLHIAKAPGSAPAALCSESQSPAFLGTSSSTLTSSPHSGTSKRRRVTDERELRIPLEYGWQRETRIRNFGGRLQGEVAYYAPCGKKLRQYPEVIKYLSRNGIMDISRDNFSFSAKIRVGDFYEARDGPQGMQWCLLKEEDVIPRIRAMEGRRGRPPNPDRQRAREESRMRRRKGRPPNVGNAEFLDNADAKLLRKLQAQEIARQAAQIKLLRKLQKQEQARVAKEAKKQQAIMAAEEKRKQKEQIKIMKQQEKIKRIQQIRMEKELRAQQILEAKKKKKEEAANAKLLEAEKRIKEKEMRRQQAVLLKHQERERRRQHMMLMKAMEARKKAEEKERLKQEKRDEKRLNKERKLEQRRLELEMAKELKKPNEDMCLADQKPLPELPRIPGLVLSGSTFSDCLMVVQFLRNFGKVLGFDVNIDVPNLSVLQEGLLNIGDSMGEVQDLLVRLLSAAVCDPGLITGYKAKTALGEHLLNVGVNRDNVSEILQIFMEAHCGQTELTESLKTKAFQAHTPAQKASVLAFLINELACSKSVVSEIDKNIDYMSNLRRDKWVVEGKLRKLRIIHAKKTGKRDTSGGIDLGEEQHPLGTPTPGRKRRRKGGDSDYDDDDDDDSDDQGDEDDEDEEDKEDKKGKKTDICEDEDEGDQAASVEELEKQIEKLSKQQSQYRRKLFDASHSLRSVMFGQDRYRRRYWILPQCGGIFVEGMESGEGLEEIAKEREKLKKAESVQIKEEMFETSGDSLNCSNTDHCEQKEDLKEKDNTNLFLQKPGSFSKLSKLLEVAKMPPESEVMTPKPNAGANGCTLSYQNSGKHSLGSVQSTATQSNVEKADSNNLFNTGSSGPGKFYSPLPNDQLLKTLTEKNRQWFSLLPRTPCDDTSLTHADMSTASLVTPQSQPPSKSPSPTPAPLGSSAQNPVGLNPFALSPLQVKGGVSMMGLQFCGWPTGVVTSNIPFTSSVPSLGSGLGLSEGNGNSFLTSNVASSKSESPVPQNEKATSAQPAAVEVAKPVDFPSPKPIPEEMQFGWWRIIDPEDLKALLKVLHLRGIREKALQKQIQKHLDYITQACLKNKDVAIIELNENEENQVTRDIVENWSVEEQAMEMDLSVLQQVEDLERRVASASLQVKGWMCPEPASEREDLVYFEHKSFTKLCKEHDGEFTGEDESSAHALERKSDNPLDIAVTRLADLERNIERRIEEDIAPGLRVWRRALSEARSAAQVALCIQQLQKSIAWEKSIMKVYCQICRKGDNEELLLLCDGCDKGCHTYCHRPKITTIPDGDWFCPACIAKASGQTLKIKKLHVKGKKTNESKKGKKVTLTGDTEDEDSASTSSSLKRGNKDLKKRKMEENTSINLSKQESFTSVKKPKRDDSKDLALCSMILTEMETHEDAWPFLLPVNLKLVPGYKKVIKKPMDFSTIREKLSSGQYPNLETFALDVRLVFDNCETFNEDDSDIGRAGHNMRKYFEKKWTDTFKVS
UniProt P34914, sequence (whole entry, looked up): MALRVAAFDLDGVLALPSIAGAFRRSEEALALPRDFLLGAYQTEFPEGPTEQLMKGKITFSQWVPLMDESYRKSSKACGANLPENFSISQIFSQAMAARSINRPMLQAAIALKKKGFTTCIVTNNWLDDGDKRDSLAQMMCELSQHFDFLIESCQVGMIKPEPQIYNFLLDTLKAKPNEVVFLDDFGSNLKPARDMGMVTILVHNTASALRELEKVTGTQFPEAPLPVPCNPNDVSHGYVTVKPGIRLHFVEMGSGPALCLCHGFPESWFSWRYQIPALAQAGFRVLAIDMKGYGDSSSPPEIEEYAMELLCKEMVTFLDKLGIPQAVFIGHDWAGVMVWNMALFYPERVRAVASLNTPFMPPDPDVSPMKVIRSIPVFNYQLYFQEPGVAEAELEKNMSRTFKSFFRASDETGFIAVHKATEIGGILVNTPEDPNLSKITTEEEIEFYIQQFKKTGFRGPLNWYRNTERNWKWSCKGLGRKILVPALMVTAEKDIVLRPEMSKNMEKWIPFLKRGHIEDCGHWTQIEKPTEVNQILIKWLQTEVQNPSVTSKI

Study 1
Structure (SMILES): Cc1cc(OCc2nnc(SC3CCCC3)n2-c2cccnc2)ccc1-c1ccc(S(C)(=O)=O)cc1
Measurement: GI50
cell line = LOX IMVI; result = 426 nM
cell line = A498; result = 276 nM
cell line = SF-268; result = 1410 nM
cell line = NCI/ADR-RES; result = 439 nM
cell line = HOP-62; result = 2380 nM
cell line = BT-549; result = 180 nM
cell line = Malme-3M; result = 1230 nM

Other studies, line by line
Molecule = N#Cc1ccc(-c2csc(CNC(=O)C34CC(CN(C(=O)COCCF)C3)C4)n2)cc1; system = human, both sexes, cryopreserved hepatocytes; conditions = 0.5 µM; measurement = CLint; result = 1.6 µL/min/10⁶ cells
Molecule = O=C(Nc1ccc(-c2cnc3ccccc3c2)cc1)C1CCN(CC2CCCCC2)CC1; system = sodium phosphate buffer, 1% DMSO; conditions = pH 7.4; measurement = solubility; result = 63 to 125 µM (≈ 26.9 to 53.4 µg/mL)
Molecule = C#Cc1cccc(Nc2ncnc3cc(OCCOC)c(OCCOC)cc23)c1; target or system = HepG2; assay = MTT; conditions = 100 µg/mL, maintenance medium, 2% serum; measurement = viability; result = 23.7%
Molecule = human neuropeptide Y; target or system = Neuropeptide Y receptor type 1 (NPY1R, Homo sapiens, UniProt P25929); assay = agonist, ELISA; system = SK-N-MC cells; conditions = 1.0 nM, 1 h, 37 °C, together with: forskolin 10 µM; how to read = relative to: forskolin-stimulated saline-treated cells; measurement = cAMP level; result = 59.6 ± 6.8%
Molecule = cyclic GMP-AMP; target or system = Bromodomain-containing protein 4, BD1 (BRD4, Homo sapiens, UniProt O60885); assay = binding, thermal shift; conditions = 50 µM, BD1 domain; measurement = ΔTm; result = -0.57 ± 0.67 °C
Molecule = O=C(Nc1ccc(Cl)cc1)NC1CCN(c2c(NS(=O)(=O)Cc3ccccc3)c(=O)c2=O)CC1; target or system = Bifunctional epoxide hydrolase 2 (Ephx2, Mus musculus, UniProt P34914); measurement = IC50; result = 4090 ± 432 nM
Molecule = CC[C@@H]1C(=O)N(C)c2cnc(Nc3ccc(C(=O)NC4CCN(C)CC4)cc3OC)nc2N1C1CCCC1; target or system = Bromodomain adjacent to zinc finger domain protein 2B (BAZ2B, Homo sapiens, UniProt Q9UIF8); assay = thermal stabilisation, thermal shift; conditions = 10 µM; measurement = ΔTm; result = -0.03 ± 0.29 °C

Excerpt of the above (study 1):
cell line = HOP-62; result = 2380 nM
cell line = BT-549; result = 180 nM
